Published values gathered from unrelated publications.
Each line is one published result; not all experiments were run side by side. Several values in a cell are separate wells, animals, samples, runs or records. ± marks the error that the study gave.
Oprk1: Kappa-type opioid receptor (Oprk1, Mus musculus, UniProt P33534)
FURIN: Furin (FURIN, Homo sapiens, UniProt P09958)
HTR1A: 5-hydroxytryptamine receptor 1A (HTR1A, Homo sapiens, UniProt P08908)
SPHK2: Sphingosine kinase 2 (SPHK2, Homo sapiens, UniProt Q9NRA0)
Fructose-1,6-bisphosphate aldolase/phosphatase: Fructose-1,6-bisphosphate aldolase/phosphatase (Helicobacter pylori, UniProt Q9ZMG8)

| SMILES | target | assay | test system | conditions | Ki |
| --- | --- | --- | --- | --- | --- |
| O=C(/C=C/c1ccoc1)N[C@H]1CC[C@@]2(O)[C@H]3Cc4ccc(O)c5c4[C@@]2(CCN3CC2CC2)[C@H]1O5 | Oprk1 | ligand displacement, radioligand | – | – | 0.00196 µM |
| COc1ccc(C(=O)C=Cc2ccc(NC(=O)CN3CCN(S(C)(=O)=O)CC3)cc2)cc1OC | ACHE (Homo sapiens, UniProt P22303) | enzyme activity, inhibitor | – | – | 0.047 µM |
| CC(C)[C@H](NC(=O)[C@H](CCCNC(=N)N)NC(=O)[C@H](CCCNC(=N)N)NC(=O)[C@H](C)NC(=O)Cc1ccccc1)C(=O)N[C@@H](CCCNC(=N)N)C(=O)NCc1ccc(C(=N)N)cc1 | FURIN | enzyme activity, inhibitor, fluorescence | – | – | 4.91e-05 µM and ~5e-05 µM |
| CCOC(=O)[C@@](C)(O)[C@@H]1C[C@@H](CO[Si](c2ccccc2)(c2ccccc2)C(C)(C)C)O[C@H]1n1cc(F)c(=O)[nH]c1=O | Genome polyprotein, NS5 methyltransferase domain (GP1, West Nile virus, UniProt Q9Q6P4) | N7 methyltransferase activity, inhibitor, TLC, Cheng-Prusoff | – | added: SAM 80 µM, GpppA-RNA 0.36 µM | 123 µM |
| N[C@@H](CC(=O)O)C(=O)O | pycA (Staphylococcus aureus, UniProt A0A0H3JRU9, K411A) | pyruvate carboxylation, allosteric inhibitor, MDH-coupled | – | – | 24000 ± 3000 µM |
| CN(C(=O)/C=C/c1ccoc1)[C@@H]1CC[C@@]2(O)[C@H]3Cc4cccc5c4[C@@]2(CCN3CC2CC2)[C@H]1O5 | Oprk1 | ligand displacement, radioligand | – | – | 0.00291 µM |
| CCCCCCCCCCCCC/C=C/[C@@H](O)[C@@H](N)COP(=O)(O)OCC[N+](C)(C)C | RYR1 (Oryctolagus cuniculus, UniProt P11716) | channel open probability, single channel recording, planar lipid bilayer | – | absence of calmodulin | 1.3 ± 0.3 µM |
| CC(=O)N[C@@H](CC(C)C)C(=O)N[C@@H](CC(C)C)C(=O)N[C@@H](CC(C)C)C(=O)N[C@@H](CC(C)C)C(=O)N[C@@H](CCCNC(=N)N)C(=O)N[C@H](C(=O)N[C@@H](CCCNC(=N)N)C(=O)NCc1ccc(C(=N)N)cc1)C(C)C | FURIN | enzyme activity, inhibitor, fluorescence | – | – | 0.000164 µM |
| COC(=O)c1ccc(C2c3c(-c4ccccc4O)n[nH]c3C(=O)N2Cc2ccncc2)cc1 (stereo not drawn) | HTR1A | ligand displacement, radioligand | – | cell membranes | 17.8 µM |
| CCCCCCCCCCCCC/C=C/[C@@H](O)[C@H](CO)N(C)C | SPHK2 | enzyme activity, inhibitor, TLC | – | – | 20 µM |
| O=P(O)(O)Oc1ccccc1OP(=O)(O)O | Signal transducer and activator of transcription 5B, SH2 (STAT5B, Homo sapiens, UniProt P51692) | ligand displacement, FP | – | – | 0.93 µM |
| C[S+]([O-])c1ccc(C(=O)C2CCN(C3Cc4ccccc4CC3O)CC2)cc1 (racemic) | SLC18A3 (Homo sapiens, UniProt Q16572) | ligand displacement, radioligand | – | – | 0.0065 µM |
| O=C(O)C[C@H]1CCN[C@@H]1C(=O)O | Glutamate receptor ionotropic, kainate 3 (Rattus norvegicus, UniProt P42264) | binding | Sf9 cells expressing homomeric receptor | added: [3H]-kainate | 0.51 µM |
| Cc1cccc(NC(=O)c2ccc(OCc3ccccc3)cc2)n1 | Grm5 (Rattus norvegicus, UniProt P31424) | ligand displacement, radioligand | – | cell membranes | > 10 µM |
| O=C(O)[C@H]1/C(=C/CO)O[C@@H]2CC(=O)N21 | ampC (Burkholderia multivorans, UniProt A0A0H3KN52) | enzyme activity, inhibitor | – | – | 5 ± 1 µM |
| CSC[C@H]1O[C@@H](n2cnc3c2N=CNC[C@H]3O)C[C@@H]1O | Fructose-1,6-bisphosphate aldolase/phosphatase | enzyme activity, inhibitor | J99 | pH 7.0, 25 °C, slow-onset second phase, added: 400 µM MTA | > 10 µM |
| N=C(N)NCc1ccc(C(=O)NCCCCC(NC(=O)NC(CCC(=O)O)C(=O)O)C(=O)O)cc1I (stereo not drawn) | FOLH1 (Homo sapiens, UniProt Q04609) | inhibitor, Amplex Red fluorescence | LNCaP cell extract | added: NAAG | 0.00045 µM |
| C=C[C@H]1CN2CC[C@H]1C[C@H]2[C@H](O)c1ccnc2ccccc12 | SLC6A4 (Homo sapiens, UniProt P31645, S438T) | transporter uptake, inhibitor, radiometric | – | – | 196 µM |

| SMILES | target | assay | test system | conditions | Ki |
| --- | --- | --- | --- | --- | --- |
| c1ccc(CCN2CCCCC2)cc1 | opioid receptors, rat | binding | rat brain | 60 min, 25 °C, added: [3H]bremazocine 0.5 nM | > 10 µM |
| O=[PH](O)O | GPD1 (Homo sapiens, UniProt P21695) | enzyme activity, competitive inhibitor | – | pH 7.5, added: DHAP, NADH | 42000 ± 6000 µM |
| CC[C@H](C)CCCCC(=O)N[C@@H](CCN)C(=O)N[C@H](C(=O)N[C@@H](CCN)C(=O)N[C@H]1CCNC(=O)[C@H]([C@@H](C)O)NC(=O)[C@H](CCN)NC(=O)[C@H](CCN)NC(=O)[C@H](CC(C)C)NC(=O)[C@@H](CC(C)C)NC(=O)[C@H](CCN)NC1=O)[C@@H](C)O | Klebsiella pneumoniae ATCC 13883 lipopolysaccharide | displacement | – | – | 0.6 ± 0.1 µM |
| O=C(NCCCc1c[nH]cn1)NC(=O)c1ccccc1 | HRH1 (Homo sapiens, UniProt P35367) | ligand displacement, radioligand | – | cell membranes | > 100 µM |
| CC(C)[C@H](NC(=O)[C@H](CCCNC(=N)N)NC(=O)[C@@H](CCCNC(=N)N)NC(=O)[C@@H](CCCNC(=N)N)NC(=O)[C@@H](CCCNC(=N)N)NC(=O)[C@H](N)CCCNC(=N)N)C(=O)N[C@@H](CCCNC(=N)N)C(=O)NCc1ccc(C(=N)N)cc1 | FURIN | enzyme activity, inhibitor, fluorescence | – | – | 9.43e-05 µM |
| O=C(O)c1ccc2cccnc2n1 | Thioredoxin glutathione reductase (Schistosoma mansoni, UniProt Q962Y6) | enzyme activity, inhibitor | – | NADPH-free enzyme, added: varied NADPH, 3 mM DTNB | 570 µM |
| O=[N+]([O-])c1ccc(/C=C/c2ccc([N+](=O)[O-])cc2S(=O)(=O)O)c(S(=O)(=O)O)c1 | folA (Escherichia coli, UniProt P0ABQ4) | inhibitor | – | from IC50, non-competitive | 45.3 µM |
| C[C@H](N)Cn1ccc2cc(F)c(Cl)cc21 | HTR1A | ligand displacement, radioligand | – | cell membranes | 6.68 µM |
| NC(=O)[C@H](CO)NC(=O)CCCCCn1cc(CN(Cc2cn(CCCCCC(=O)N[C@@H](CO)C(N)=O)nn2)Cc2cn(CCCCCC(=O)N[C@@H](CO)C(N)=O)nn2)nn1 | MC4R (Homo sapiens, UniProt P32245) | competitive binding | HEK293 expressing MC4R and CCK2R | – | > 10 µM |
| COc1ccc(C(=O)O[C@H]2[C@H](O[C@@H]3[C@@H](OC(C)=O)[C@H](O[C@H]4C[C@H]5[C@@H]6CC=C7C[C@@H](O)CC[C@]7(C)[C@H]6CC[C@]5(C)[C@@]4(O)[C@H](C)C(=O)CCC(C)C)OC[C@@H]3O)OC[C@@H](O)[C@@H]2O)cc1 | OSBP2 (Homo sapiens, UniProt Q969R2) | [3H]25-hydroxycholesterol binding, inhibitor, competitive radioligand binding | HEK293T cell lysate | added: 20 nM [3H]25-hydroxycholesterol | 0.071 ± 0.006 µM |
| c1ccc(CCCCN2CCC(c3ccccc3)CC2)cc1 | TMEM97 (Homo sapiens, UniProt Q5BJF2) | ligand displacement, radioligand | – | – | 0.0008 µM |
| Oc1ccc(Nc2nc(-c3ccc(Cl)cc3)cs2)cc1 | SPHK2 | enzyme activity, inhibitor, FlashPlate | – | – | 33 µM |
| CCCCN1C(=O)C(C=CC=CC=C2C(=O)N(c3ccc(S(=O)(=O)O)cc3)N=C2C)C(=O)N(CCCC)C1=O | SLC4A1 (Homo sapiens, UniProt P02730) | 36Cl exchange flux, inhibitor, Dixon plot | human erythrocytes | 0 °C, external iodide at equilibrium | 0.0264 µM and 0.026 µM |
| CO[C@H]1C[C@@H]2\C=C(C)/C=C/C=C\C(=O)N[C@H](c3ccccc3)C/C=C/CC[C@H](O)CC(=O)C2=C1O | Replicase polyprotein 1ab, main protease (Feline coronavirus, UniProt Q98VG9) | enzyme activity, inhibitor, fluorescence | – | – | 11.7 µM |
| Nc1ccc(S(=O)(=O)O)cc1 | Ubiquitin-associated and SH3 domain-containing protein B, phosphatase domain (UBASH3B, Homo sapiens, UniProt Q8TF42) | phosphatase activity, competitive inhibitor | – | added: pNPP | 480 ± 55 µM |
| COc1cc(Cc2cnc(N)nc2N)c2c(c1OC)OC(C1CC1)C=C2 (stereo not drawn) | Dihydrofolate reductase (Staphylococcus aureus, UniProt C7C2U7) | inhibitor | – | – | 0.221 ± 0.006 µM |
| c1ccc(C2CO2)cc1 (stereo not drawn) | Cytochrome P450 2E1 (CYP2E1, Homo sapiens, UniProt P05181) | inhibitor | – | 30 min, pH 7.4 | 1000 µM |
| CSC[C@H]1O[C@@H](n2cnc3c2N=CNC[C@H]3O)[C@H](O)[C@@H]1O | Fructose-1,6-bisphosphate aldolase/phosphatase | enzyme activity, inhibitor | J99 | pH 7.0, 25 °C, slow-onset second phase, added: 400 µM MTA | 0.063 ± 0.004 µM |

A few entries again:
| SMILES | target | assay | test system | conditions | Ki |
| --- | --- | --- | --- | --- | --- |
| CCOC(=O)[C@@](C)(O)[C@@H]1C[C@@H](CO[Si](c2ccccc2)(c2ccccc2)C(C)(C)C)O[C@H]1n1cc(F)c(=O)[nH]c1=O | Genome polyprotein, NS5 methyltransferase domain (GP1, West Nile virus, UniProt Q9Q6P4) | N7 methyltransferase activity, inhibitor, TLC, Cheng-Prusoff | – | added: SAM 80 µM, GpppA-RNA 0.36 µM | 123 µM |
| N[C@@H](CC(=O)O)C(=O)O | pycA (Staphylococcus aureus, UniProt A0A0H3JRU9, K411A) | pyruvate carboxylation, allosteric inhibitor, MDH-coupled | – | – | 24000 ± 3000 µM |
| CN(C(=O)/C=C/c1ccoc1)[C@@H]1CC[C@@]2(O)[C@H]3Cc4cccc5c4[C@@]2(CCN3CC2CC2)[C@H]1O5 | Oprk1 | ligand displacement, radioligand | – | – | 0.00291 µM |
